Measurements gathered from unrelated publications.
Each numbered part is a random draw from the data of one study; scales do not carry over between parts. Substitutions count along the parent as printed.
Chain of UniProt P48729 (whole entry, looked up): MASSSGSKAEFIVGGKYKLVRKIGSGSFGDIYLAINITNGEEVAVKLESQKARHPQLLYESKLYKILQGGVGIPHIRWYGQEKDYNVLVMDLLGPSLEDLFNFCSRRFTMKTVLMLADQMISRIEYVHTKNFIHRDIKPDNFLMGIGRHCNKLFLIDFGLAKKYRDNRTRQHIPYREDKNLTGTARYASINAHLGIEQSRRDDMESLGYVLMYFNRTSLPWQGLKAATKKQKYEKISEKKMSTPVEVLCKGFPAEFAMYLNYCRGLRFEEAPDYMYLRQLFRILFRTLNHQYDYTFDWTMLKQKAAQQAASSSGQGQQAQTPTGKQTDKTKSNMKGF
Chain of UniProt P41145 (whole entry, looked up): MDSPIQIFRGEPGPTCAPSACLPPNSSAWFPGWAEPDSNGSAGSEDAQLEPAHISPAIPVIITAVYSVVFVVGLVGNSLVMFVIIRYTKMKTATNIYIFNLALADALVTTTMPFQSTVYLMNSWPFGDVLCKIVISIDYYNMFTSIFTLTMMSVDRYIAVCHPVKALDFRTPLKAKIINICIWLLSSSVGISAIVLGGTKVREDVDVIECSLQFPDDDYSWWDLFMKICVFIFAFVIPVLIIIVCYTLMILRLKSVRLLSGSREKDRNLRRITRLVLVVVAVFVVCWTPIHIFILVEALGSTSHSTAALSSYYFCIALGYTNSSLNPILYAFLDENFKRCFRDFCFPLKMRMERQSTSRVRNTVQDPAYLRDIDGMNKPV

Set 1
Target: tungstate, free oxyanion
Technique: microfluidic competitive inhibition
Matrix: in vitro, cell-free expressed
Concentration: not given
Setting: derived from inhibition constants, unchanged parent 2230 nM
Direction: lower = stronger binding
Starting sequence: PafA, mature enzyme, eGFP fusion (Elizabethkingia meningoseptica, UniProt Q9KJX5); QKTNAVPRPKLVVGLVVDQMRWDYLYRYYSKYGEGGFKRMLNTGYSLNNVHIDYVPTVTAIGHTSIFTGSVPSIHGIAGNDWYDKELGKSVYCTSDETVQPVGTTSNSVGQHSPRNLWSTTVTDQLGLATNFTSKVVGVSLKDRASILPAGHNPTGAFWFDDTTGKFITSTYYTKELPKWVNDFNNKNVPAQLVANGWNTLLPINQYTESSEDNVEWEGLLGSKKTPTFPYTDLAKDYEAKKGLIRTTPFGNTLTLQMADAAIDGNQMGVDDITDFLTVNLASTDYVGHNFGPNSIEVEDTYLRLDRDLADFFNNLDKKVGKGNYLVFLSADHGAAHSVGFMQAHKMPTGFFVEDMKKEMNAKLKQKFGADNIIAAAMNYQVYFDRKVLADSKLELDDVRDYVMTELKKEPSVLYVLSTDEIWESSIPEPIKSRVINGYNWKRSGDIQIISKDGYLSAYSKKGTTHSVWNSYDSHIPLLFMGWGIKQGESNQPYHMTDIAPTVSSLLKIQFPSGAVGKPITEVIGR
| Change | oxyanion analog dissociation constant |
| --- | --- |
| G525V | 1.98 µM |
| F368V | 3.5 µM |
| D143V | 10.9 µM |
| E406V | 2.15 µM |
| G165V | 974 nM |
| G463A | 863 nM |
| V279G | 1.2 µM |
| V270G | 2.18 µM |

Set 2
Target: UDP-N-acetylglucosamine--peptide N-acetylglucosaminyltransferase 110 kDa subunit (OGT, Homo sapiens, UniProt O15294)
Chain of UniProt O15294 (whole entry, looked up): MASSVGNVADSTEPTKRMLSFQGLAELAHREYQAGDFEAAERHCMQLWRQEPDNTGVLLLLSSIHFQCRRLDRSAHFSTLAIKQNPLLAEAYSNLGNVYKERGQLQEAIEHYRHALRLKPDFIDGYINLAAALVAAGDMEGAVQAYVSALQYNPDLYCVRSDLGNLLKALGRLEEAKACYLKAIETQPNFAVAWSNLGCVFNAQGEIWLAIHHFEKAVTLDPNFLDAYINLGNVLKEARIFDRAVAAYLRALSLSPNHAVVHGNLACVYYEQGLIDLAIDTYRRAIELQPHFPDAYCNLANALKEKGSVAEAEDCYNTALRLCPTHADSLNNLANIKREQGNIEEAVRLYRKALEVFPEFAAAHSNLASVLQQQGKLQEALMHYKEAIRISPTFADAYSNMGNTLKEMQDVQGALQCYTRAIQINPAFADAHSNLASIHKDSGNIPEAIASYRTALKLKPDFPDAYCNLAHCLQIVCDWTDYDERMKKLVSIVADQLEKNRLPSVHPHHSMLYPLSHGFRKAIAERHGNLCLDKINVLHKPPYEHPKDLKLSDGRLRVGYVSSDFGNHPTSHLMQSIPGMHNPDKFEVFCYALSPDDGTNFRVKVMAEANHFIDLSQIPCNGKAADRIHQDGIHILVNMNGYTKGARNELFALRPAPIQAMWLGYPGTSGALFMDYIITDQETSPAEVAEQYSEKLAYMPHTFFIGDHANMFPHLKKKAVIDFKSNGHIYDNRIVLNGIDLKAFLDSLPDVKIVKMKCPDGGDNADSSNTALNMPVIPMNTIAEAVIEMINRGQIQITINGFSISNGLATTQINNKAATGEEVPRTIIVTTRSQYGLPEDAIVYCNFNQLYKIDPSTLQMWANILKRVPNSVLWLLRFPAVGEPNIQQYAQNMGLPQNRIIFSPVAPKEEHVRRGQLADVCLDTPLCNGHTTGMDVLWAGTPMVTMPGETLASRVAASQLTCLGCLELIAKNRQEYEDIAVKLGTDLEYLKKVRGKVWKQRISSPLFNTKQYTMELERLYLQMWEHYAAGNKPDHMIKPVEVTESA
Observed: binding
Technique: phage display NGS
Form: peptide
Setting: panning round 2
Relative to: input library
| Molecule | minimum log2 enrichment ratio |
| --- | --- |
| HPHGHRNTAISWTAM | 2.2 |
| HIKWSTGWHHQGRT | 1.94 |
| DHAHRHWYAMRNHHT | 2.59 |
| GMSPWHFHSHQAIMV | 2.54 |
| WPMDFPMFTHHHFH | 2.85 |
| DFLYMPKYQMVFDFT | 6.57 |
| LPIPKFLPIYQLKLE | 2.74 |
| TWHGSYKYRQHYAQN | 2.28 |

Mixed results
| Compound | target | assay | test system | conditions | measurement | result |
| --- | --- | --- | --- | --- | --- | --- |
| O=C1CCC(N2Cc3c(ccc4c3OCC43CCN(Cc4ccccc4)CC3)C2=O)C(=O)N1 (stereo not drawn) | CSNK1A1 (Homo sapiens, UniProt P48729) | degrader, HiBiT | HEK293 | 0.04115 µM, 6 h | remaining protein | 104% |
| CC(=O)C1=C(C)N(c2cccc(C(F)(F)F)c2)C(=O)N[C@H]1c1ccc(C#N)nc1 | OPRK1 (Homo sapiens, UniProt P41145) | ligand displacement |  | 10 µM | inhibition | -8.67% |

Excerpt of the above (mixed results):
| Compound | target | assay | test system | conditions | measurement | result |
| --- | --- | --- | --- | --- | --- | --- |
| O=C1CCC(N2Cc3c(ccc4c3OCC43CCN(Cc4ccccc4)CC3)C2=O)C(=O)N1 (stereo not drawn) | CSNK1A1 (Homo sapiens, UniProt P48729) | degrader, HiBiT | HEK293 | 0.04115 µM, 6 h | remaining protein | 104% |
| CC(=O)C1=C(C)N(c2cccc(C(F)(F)F)c2)C(=O)N[C@H]1c1ccc(C#N)nc1 | OPRK1 (Homo sapiens, UniProt P41145) | ligand displacement |  | 10 µM | inhibition | -8.67% |
